Measurements from different studies.
Values joined by “and” are separate records of one study, mostly repeats; a detail may differ. Numbers after ± are the reported error.

CCCN(Cc1nnc(-c2ccco2)o1)C(=O)C1CCCN(C(=O)c2ccc(Cl)cc2)C1 (stereo not shown)  EC50 (Plasmodium falciparum; parasite growth; Dd2): 114 ± 47 nM
COc1ccccc1-c1n[nH]c2nc(NC3CCN(C(=O)Cc4ccc(F)cc4F)CC3)ncc12  relative abundance (bead binding, competition bead pull-down, measured: LINJ.35.5450; Leishmania donovani extract; 10 µM; relative to: vehicle): 1.06
CC(C)(C)C(=O)OCOP(=O)(OCOC(=O)C(C)(C)C)C1CCCN(O)C1=O (stereo not shown)  log GI50 (SF-295): -5.41 log M
O=C1NC2(CC2)COc2ncc(F)cc2[C@H]2COCCN2c2ccn3ncc1c3n2  serum total bilirubin (Sprague-Dawley rat, male, serum; oral, 5 mg/kg/day, end of recovery, 4-week subacute toxicity): 1.3 ± 0.2 µmol/L
C[C@H](NC(=O)Cc1cc(F)cc(F)c1)C(=O)N[C@@H]1C(=O)N(C)c2ccccc2-c2ccccc21  EC50 (dengue virus 2; viral replication, luciferase reporter virus; Huh-7.5.1): 31 nM
O=C1C(O)=C([C@H]2CC[C@H](c3ccc(Cl)cc3)CC2)C(=O)c2ccccc21  EC50 (Plasmodium falciparum; parasite growth; W2Mef): 63.9 ± 18.5 nM
O=S(=O)(c1ccc(-c2ccc3ncnc(Nc4ccccc4)c3c2)cc1)N1CCOCC1  EC50 (Plasmodium falciparum; parasite growth, SYBR Green fluorescence; W2, drug-resistant): > 4000 nM
CC1(C)Cc2sc(NC(=O)Cc3ccc(S(N)(=O)=O)cc3)c(C#N)c2CN1CC1CCCCC1  EC50 (Dengue virus 2; viral replication; P15-S11 passaged with DMSO): 15.3 nM and 13 nM
C[C@H]1Cc2c([nH]c3cc(Cl)c(F)cc23)[C@@]2(N1)C(=O)Nc1ccc(Cl)cc12  EC50 (Plasmodium falciparum; parasite growth; Dd2): 1.7 ± 0.2 nM
O=C(c1cccc(-c2ccc3ncnc(Nc4ccc(OCc5cccc(F)c5)c(Cl)c4)c3c2)c1)N1CCOCC1  EC50 (Plasmodium falciparum; parasite growth, SYBR Green fluorescence; W2, drug-resistant): 1100 nM
COc1ccccc1-c1n[nH]c2nc(N[C@H]3CC[C@H](NS(=O)(=O)CC(C)C)CC3)ncc12  relative abundance (bead binding, competition bead pull-down, measured: LINJ.28.3140; Leishmania donovani extract; 10 µM; relative to: vehicle): 0.97
C[C@H](NC(=O)[C@@H](O)c1cc(F)cc(F)c1)C(=O)N[C@@H]1C(=O)N(C)c2ccccc2-c2ccccc21  EC50 (dengue virus 2; viral replication; Huh-7.5.1, luciferase reporter; 48 h): 5 nM
O=S(=O)(c1cccc(-c2ccc3ncnc(Nc4ccc(OCc5cccc(F)c5)c(Cl)c4)c3c2)c1)N1CCCCC1  EC50 (Plasmodium falciparum; parasite growth, SYBR Green; D6; blood stage): 320 nM

A few entries again:
C[C@H](NC(=O)[C@@H](O)c1cc(F)cc(F)c1)C(=O)N[C@@H]1C(=O)N(C)c2ccccc2-c2ccccc21  EC50 (dengue virus 2; viral replication; Huh-7.5.1, luciferase reporter; 48 h): 5 nM
